Published values gathered from unrelated publications.

C[C@@H]1CCO[C@H]2Cn3cc(C(=O)NCc4ccc(F)cc4F)c(=O)c(O)c3C(=O)N12 — Cmax (human paediatric patients, weight sample B to under sample C kg, plasma; oral, 25 mg dispersible tablet, steady state, geometric mean, population PK post-hoc, N 22): 5590 ng/mL
C=CCn1c(=O)c2cnc(Nc3ccc(N4CCN(C)CC4)cc3)nc2n1-c1cccc(C(C)(C)O)n1 — Cmax (human; oral, 200 mg once daily, monotherapy lead-in, -5 days; geometric mean): 678 nM
CCOc1c([C@H](C)n2nc(C)c3c(N)ncnc32)cc(Cl)c(F)c1[C@@H]1CNC(=O)C1 — Cmax (human, all cohorts, plasma; oral, 30 mg, day 15): 2720 nM
Cl.[2H]C([2H])([2H])CC(=O)c1cnc(NC(=O)C2CC2)cc1Nc1cccc(-c2ncn(C([2H])([2H])[2H])n2)c1OC — Cmax (geometric mean; human; oral, 20 mg once daily, day 1, fasted, liquid, multiple dose): 175 ng/mL
O=C(O)CCC(=O)O.[2H]C([2H])([2H])Oc1cc(C)c2[nH]ccc2c1CN1CC[C@@H](C2CC2)C[C@H]1c1ccc(C(=O)O)cc1 — Cmax (human, plasma; 50 mg twice daily, day 1, multiple ascending dose, geometric mean): 1000 ng/mL
COc1cc(N2CCC(N3CCN(C)CC3)CC2)ccc1Nc1ncnc(Nc2ccccc2S(=O)(=O)C(C)C)n1 — Cmax (human, plasma; oral, 325 mg, day 1): 650 ng/mL
CCN1CCN(Cc2ccc(Nc3ncc(F)c(-c4cc(F)c5nc6n(c5c4)[C@H](C)CCC6)n3)nc2)CC1 — Cmax (human, Phase Ib patients, plasma; 300 mg, single dose, mean, with: fulvestrant): 163 ng/mL
CCn1cc(C(=O)N2CCOCC2)c(=O)c2cc(NC3Cc4ccccc4C3)cnc21 — Cmax (human, fed; oral suspension, 1200 mg/day twice daily, day 1, arithmetic mean): 1320 ng/mL
CNC(=O)c1ccc(-c2cnc3ncc(Cc4ccc5ncccc5c4)n3n2)cc1F — Cmax (human severe hepatic impairment NCI; oral, 200 mg single dose, mean): 950 ng/mL
COc1ncc(-c2nc3c(n2C(C)C)[C@H](c2ccc(Cl)cc2)N(c2cc(Cl)cn(C)c2=O)C3=O)c(OC)n1 — Cmax (LC-MS/MS, noncompartmental; human, plasma; oral, 200 mg, C1D8, high-dose, geometric mean): 1160 ng/mL

Some of these lines once more:
COc1cc(N2CCC(N3CCN(C)CC3)CC2)ccc1Nc1ncnc(Nc2ccccc2S(=O)(=O)C(C)C)n1 — Cmax (human, plasma; oral, 325 mg, day 1): 650 ng/mL
